Experimental data collected from several papers.
Protocols differ between the studies behind these lines. ± marks the error that the study gave.
Target: Acetylcholinesterase (ache, Electrophorus electricus, UniProt O42275)
UniProt O42275, sequence (whole entry, looked up): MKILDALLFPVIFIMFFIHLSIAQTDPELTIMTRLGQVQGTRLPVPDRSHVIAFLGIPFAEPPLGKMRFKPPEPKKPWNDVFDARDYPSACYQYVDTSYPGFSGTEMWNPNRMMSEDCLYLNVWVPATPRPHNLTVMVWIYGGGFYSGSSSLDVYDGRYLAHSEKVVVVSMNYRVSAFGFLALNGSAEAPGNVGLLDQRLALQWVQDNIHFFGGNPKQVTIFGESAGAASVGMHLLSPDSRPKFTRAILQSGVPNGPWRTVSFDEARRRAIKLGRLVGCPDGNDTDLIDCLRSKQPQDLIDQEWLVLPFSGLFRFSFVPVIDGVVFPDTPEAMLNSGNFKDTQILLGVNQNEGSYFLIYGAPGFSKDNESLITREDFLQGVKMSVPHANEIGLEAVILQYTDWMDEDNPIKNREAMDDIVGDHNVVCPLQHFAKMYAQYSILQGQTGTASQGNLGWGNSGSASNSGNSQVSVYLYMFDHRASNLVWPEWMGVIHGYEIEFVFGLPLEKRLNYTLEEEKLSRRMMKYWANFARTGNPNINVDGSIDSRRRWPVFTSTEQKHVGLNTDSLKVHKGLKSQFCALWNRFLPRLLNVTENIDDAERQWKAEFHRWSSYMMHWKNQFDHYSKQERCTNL

| Compound | observed | mode | method | tested at | endpoint | result |
| --- | --- | --- | --- | --- | --- | --- |
| COc1ccnc(Nc2c3c(nc4ccccc24)CCCC3)c1 | enzyme activity | inhibitor | Ellman | 100 µM | inhibition | > 90% |
| O=c1c(NCc2ccc(Br)cc2)c(NC2CCN(Cc3ccccc3)CC2)c1=O | enzyme activity | inhibitor | Ellman | 25 µM | inhibition | 54.1% |
| O=C(/C=C/c1ccccc1)c1cc2ccccc2oc1=O |  |  |  | 10 µM | remaining activity | 86 ± 3.6% |
| COc1ccc([C@@H]2N=NC(NCCc3c[nH]c4ccc(C)cc34)=NC2=O)cc1 | peripheral site binding |  |  | 1 µM | propidium displacement | 58% |
| Cc1cccc(Nc2c3c(nc4ccccc24)CCCC3)n1 | enzyme activity | inhibitor | Ellman | 100 µM | inhibition | 44.7% |
| Cc1cc(O)c2c(c1)C(=O)c1c(O)ccc(O)c1C2=O | peripheral anionic site binding |  | propidium iodide competition | 50 µM | propidium iodide displacement | 69.2% |
| COc1ccc2c(c1OC)CC1c3c(cc4c(c3-2)OCO4)CC[N+]1(C)[O-] (single isomer, unassigned; (-)) | enzyme activity | inhibitor | Ellman | up to 0.1 µg/mL | IC50 | inactive |
| Cc1ccc(CCNc2c(NC3CCN(Cc4ccccc4)CC3)c(=O)c2=O)cc1 | enzyme activity | inhibitor | Ellman | 25 µM | inhibition | 52.2% |
| O=c1oc2c(CNCCc3cccc(F)c3)c(O)ccc2c2c1CCC2 | peripheral site binding |  |  | 0.24 µM | propidium displacement | 44% |
| Clc1ccc(Nc2c3c(nc4ccccc24)CCCC3)cc1 | enzyme activity | inhibitor | Ellman | 100 µM | inhibition | 59.6% |
| COc1ccc(CCNc2c(NC3CCN(Cc4ccccc4)CC3)c(=O)c2=O)cc1OC | enzyme activity | inhibitor | Ellman | 25 µM | inhibition | 59.3% |
| FC(F)(F)c1cccc(Nc2c3c(nc4ccccc24)CCCC3)c1 | enzyme activity | inhibitor | Ellman | 50 µM | inhibition | < 50% |
| O=c1c(NCc2ccc(O)cc2)c(NC2CCN(Cc3ccccc3)CC2)c1=O | enzyme activity | inhibitor | Ellman | 12.5 µM | inhibition | 42% |
| COCCN1COc2c(cc3c4c(c(=O)oc3c2C)CCC4)C1 | peripheral site binding |  |  | 3 µM | propidium displacement | 57% |
| COc1ccnc(Nc2c3c(nc4ccc(Cl)cc24)CCCC3)c1 | enzyme activity | inhibitor | Ellman | 100 µM | inhibition | 37.6% |
| O=C(/C=C/c1ccc(F)cc1)c1cc2ccccc2oc1=O | enzyme activity | inhibitor |  | 10 µM | remaining activity | 76.7% |
| c1ccc(Nc2c3c(nc4ccccc24)CCCC3)cc1 | enzyme activity | inhibitor | Ellman | 100 µM | inhibition | 52.2% |
| O=C(/C=C/c1ccc(Cl)cc1)c1cc2ccccc2oc1=O | enzyme activity | inhibitor |  | 10 µM | remaining activity | 76.9% |
| Cc1ccnc(Nc2c3c(nc4cc(C)ccc24)CCCC3)c1 | enzyme activity | inhibitor | Ellman | 50 µM | inhibition | 35.9% |
| COc1c(OC2OC(CO)C(O)C(O)C2O)cc2c3c1-c1ccccc1CC3NCC2 (single isomer, unassigned; (-)) | enzyme activity | inhibitor | Ellman | up to 0.1 µg/mL | IC50 | inactive |
| O=c1c(NCCc2ccc(Br)cc2)c(NC2CCN(Cc3ccccc3)CC2)c1=O | enzyme activity | inhibitor | Ellman | 12.5 µM | inhibition | 30.1% |
| Cc1nc(-c2ccc(Cl)cc2)nc2sc3c(=O)n(CCN4CCOCC4)cnc3c12 | peripheral site binding |  |  | 3 µM | propidium displacement | 58% |
| COc1ccc(CNc2c(NC3CCN(Cc4ccccc4)CC3)c(=O)c2=O)cc1 | enzyme activity | inhibitor | Ellman | 25 µM | inhibition | 65.9% |
| O=C(/C=C/c1ccc(Br)cc1)c1cc2ccccc2oc1=O | enzyme activity | inhibitor |  | 10 µM | remaining activity | 69.6% |
| Cc1ccc(CNc2c(NC3CCN(Cc4ccccc4)CC3)c(=O)c2=O)cc1 | enzyme activity | inhibitor | Ellman | 12.5 µM | inhibition | 45.2% |
| COc1ccnc(Nc2c3c(nc4ccccc24)CCC(C)C3)c1 (stereo not shown) | enzyme activity | inhibitor | Ellman | 50 µM | inhibition | 49.9% |
| O=c1c(NCCc2ccccc2)c(NC2CCN(Cc3ccccc3)CC2)c1=O | enzyme activity | inhibitor | Ellman | 12.5 µM | inhibition | 45.5% |
| O=C(/C=C/c1ccccc1F)c1cc2ccccc2oc1=O | enzyme activity | inhibitor |  | 10 µM | remaining activity | 69.6% |
